# Measurements gathered from unrelated publications.
# Protocols differ between the studies behind these lines.
# Medium: plasma
# Route: oral
SMILES,test system,conditions,Tmax [h]
C[C@H](N)C(=O)N1C[C@H](CCCB(O)O)[C@](N)(C(=O)O)C1,human,"100 mg twice daily, multiple doses, patients",4
CN(C)Cc1c(C(=O)NCCOc2ccc(C(=O)NO)cc2)oc2ccccc12,human,"60 mg, single dose, patients",1
O=C(c1nc2n(n1)[C@H](c1ccccc1)C[C@@H]2F)C1CC1,human,"25 mg, single dose, fasted, healthy volunteers",1.94
CC(C)(Sc1ccncc1-c1ccc(C#N)c2ccccc12)C(=O)O,male human,"5 mg, single dose, fasted",1.25
O=C(COc1ccc(Cl)cc1)NC12CC(c3nnc([C@H]4C[C@@H](OC(F)(F)F)C4)o3)(C1)C2,human,"fasted, healthy volunteers",14 to 24
C=C(C)[C@@H]1CC[C@]2(NCCN3CCS(=O)(=O)CC3)CC[C@]3(C)[C@H](CC[C@@H]4[C@@]5(C)CC=C(C6=CC[C@@](CF)(C(=O)O)CC6)C(C)(C)[C@@H]5CC[C@]43C)[C@@H]12,human,"40 mg, multiple doses, once daily, patients",4.06
CNC(=O)c1ccc(-c2cnc3ncc(Cc4ccc5ncccc5c4)n3n2)cc1F,human,"350 mg twice daily, multiple doses, steady state, patients",3.93
Nc1ccc(-c2nc([C@H]3CCc4cc(-c5cc(Cl)ccc5-n5cnnn5)cc(=O)n43)c(F)[nH]2)c(F)n1,human,"150 mg, single dose, fasted, healthy volunteers",4
CS(=O)(=O)n1cc2c(n1)CN([C@H]1CO[C@H](c3cc(F)ccc3F)[C@@H](N)C1)C2,male human,"10 mg, multiple doses, healthy volunteers",4
CNc1nc(Nc2ccc(-n3cnc(C)n3)c(OC)c2)nc2c1CC[C@H]2c1ccc(F)cc1,human,"200 mg, multiple doses, once daily",5
CNCc1ccc(-c2[nH]c3cc(F)cc4c3c2CCNC4=O)cc1,human,"160 mg, multiple doses, once daily, steady state, patients",3.75
C[C@@H](N)c1cc(Cl)ccc1Cn1c(=S)[nH]c(=O)c2[nH]ccc21,human,"10 mg, multiple doses, once daily, healthy volunteers",1.5
O=C(O)C[C@H](O)C[C@H](O)/C=C/c1c(C2CC2)nc2ccccc2c1-c1ccc(F)cc1,female human,"2 mg, multiple doses, once daily",0.75
CS(=O)(=O)n1cc2c(n1)CN([C@H]1CO[C@H](c3cc(F)ccc3F)[C@@H](N)C1)C2,male human,"25 mg, single dose, fasted",1
CN(C)C/C=C/C(=O)Nc1cc2c(Nc3ccc(F)c(Cl)c3)ncnc2cc1O[C@H]1CCOC1,human,"10 mg, multiple doses, once daily, steady state, patients",3
CC(=O)N[C@H]1CC[C@H](NC(=O)CN2CCN(c3nncc(-c4ccc(C)cc4)n3)CC2)CC1,human,"50 mg, single dose, fasted, healthy volunteers",1
COc1cccc(-c2ccc(NC(=O)C3=C(C(=O)O)CCC3)c(F)c2)c1,male human,"30 mg, single dose, fasted, healthy volunteers",5
CC(C)(/C=C(\C#N)C(=O)N1CCC[C@@H](n2nc(-c3ccc(Oc4ccccc4)cc3F)c3c(N)ncnc32)C1)N1CCN(C2COC2)CC1,human,"100 mg, single dose, healthy volunteers",1.1
C[C@@H]1CCC[C@H](n2cnc(-c3cc(Cl)ccc3-n3cc(Cl)nn3)cc2=O)c2cc(ccn2)-c2c(cnn2C(F)F)NC1=O,human,"200 mg, single dose, fasted, healthy volunteers",3
CC#CC(=O)N1CCC[C@H]1c1nc(-c2ccc(C(=O)Nc3ccccn3)cc2)c2c(N)nccn12,human,"100 mg, single dose, fasted",0.735
Nc1ncc(-c2cnn(CCO)c2)c2scc(-c3ccc(NC(=O)Nc4cccc(F)c4)cc3)c12,human,"240 mg, patients",3.4
C#C[C@]1(CO)O[C@@H](n2cnc3c(N)nc(F)nc32)C[C@@H]1O,human,"100 mg, single dose, fasted",0.5
O=C(c1cccnc1-c1ccncc1)N1CCC(O)(Cc2ccccc2)CC1,human,"100 mg, multiple doses, once daily, healthy volunteers",0.42
CCCOc1ccc([C@H]2CNC(=O)N2c2ccc3[nH]cnc3c2)cc1,human,"10 mg, single dose, fasted",0.5
Nc1cc(F)ccc1NC(=O)c1ccc(CNC(=O)/C=C/c2cccnc2)cc1,human,"30 mg, patients",3.98
Cn1ncnc1[C@H]1c2n[nH]c(=O)c3cc(F)cc(c23)N[C@@H]1c1ccc(F)cc1,human,"0.5 mg, single dose",1
O=C(O)COC[C@H]1CC[C@H](COC(=O)N(c2ccccc2)c2ccc(Cl)cc2)CC1,human,"20 µg, multiple doses, twice daily, steady state",1

# Repeated from above:
SMILES,test system,conditions,Tmax [h]
CS(=O)(=O)n1cc2c(n1)CN([C@H]1CO[C@H](c3cc(F)ccc3F)[C@@H](N)C1)C2,male human,"10 mg, multiple doses, healthy volunteers",4
CNc1nc(Nc2ccc(-n3cnc(C)n3)c(OC)c2)nc2c1CC[C@H]2c1ccc(F)cc1,human,"200 mg, multiple doses, once daily",5
CNCc1ccc(-c2[nH]c3cc(F)cc4c3c2CCNC4=O)cc1,human,"160 mg, multiple doses, once daily, steady state, patients",3.75
C[C@@H](N)c1cc(Cl)ccc1Cn1c(=S)[nH]c(=O)c2[nH]ccc21,human,"10 mg, multiple doses, once daily, healthy volunteers",1.5
O=C(O)C[C@H](O)C[C@H](O)/C=C/c1c(C2CC2)nc2ccccc2c1-c1ccc(F)cc1,female human,"2 mg, multiple doses, once daily",0.75
